Published values pooled from the literature.
Lines come from different studies, so protocols differ.
Target: Voltage-gated inwardly rectifying potassium channel KCNH2 (KCNH2, Homo sapiens, UniProt Q12809)
Chain of UniProt Q12809 (whole entry, looked up): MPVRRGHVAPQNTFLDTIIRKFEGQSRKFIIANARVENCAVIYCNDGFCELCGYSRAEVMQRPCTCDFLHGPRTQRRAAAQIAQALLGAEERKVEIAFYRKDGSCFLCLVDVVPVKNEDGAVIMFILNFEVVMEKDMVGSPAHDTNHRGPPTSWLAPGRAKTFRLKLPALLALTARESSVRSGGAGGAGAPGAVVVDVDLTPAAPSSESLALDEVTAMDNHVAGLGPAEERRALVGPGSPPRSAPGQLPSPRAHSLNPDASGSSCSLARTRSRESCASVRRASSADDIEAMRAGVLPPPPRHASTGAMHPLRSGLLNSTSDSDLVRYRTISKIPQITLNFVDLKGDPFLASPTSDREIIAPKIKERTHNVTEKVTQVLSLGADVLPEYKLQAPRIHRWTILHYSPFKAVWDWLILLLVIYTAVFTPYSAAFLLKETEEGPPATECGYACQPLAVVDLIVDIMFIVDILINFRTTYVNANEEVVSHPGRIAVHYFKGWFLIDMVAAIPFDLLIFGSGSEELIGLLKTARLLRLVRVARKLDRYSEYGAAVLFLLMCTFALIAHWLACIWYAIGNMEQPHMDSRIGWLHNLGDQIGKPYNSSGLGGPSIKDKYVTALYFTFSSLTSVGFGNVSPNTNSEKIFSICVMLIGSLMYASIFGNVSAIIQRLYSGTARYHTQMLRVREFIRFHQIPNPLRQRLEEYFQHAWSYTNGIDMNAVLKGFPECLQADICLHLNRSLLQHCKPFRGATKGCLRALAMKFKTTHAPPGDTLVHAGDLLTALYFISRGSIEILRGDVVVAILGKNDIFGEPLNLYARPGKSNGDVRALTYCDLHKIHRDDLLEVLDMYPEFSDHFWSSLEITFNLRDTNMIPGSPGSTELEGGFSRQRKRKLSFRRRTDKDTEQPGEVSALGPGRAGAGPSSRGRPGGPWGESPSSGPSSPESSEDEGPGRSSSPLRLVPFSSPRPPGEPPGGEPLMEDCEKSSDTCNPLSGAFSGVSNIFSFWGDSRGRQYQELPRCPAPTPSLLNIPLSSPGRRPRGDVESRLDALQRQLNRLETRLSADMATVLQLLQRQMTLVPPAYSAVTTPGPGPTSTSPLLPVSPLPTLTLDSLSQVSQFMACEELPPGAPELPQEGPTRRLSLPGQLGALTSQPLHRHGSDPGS

SMILES | observed | action | method | cell line | pH | notes | IC50
CN(C)C(CNC(=O)Nc1cc(C(F)(F)F)ccc1N1CCOCC1)c1ccncc1 (stereo not drawn) | ion current | inhibitor | patch clamp | – | – | – | > 30 µM
NCCCNc1nc2cc(Cl)ccc2n1Cc1ccccc1 | ion current | inhibitor | – | – | – | – | 1.63 µM
O=c1c2cc(-c3ccc(Cl)cc3)nc(-c3cccnc3)c2ncn1C1CCC(OP(=O)(O)O)CC1 (stereo not drawn) | ion current | inhibitor | – | – | – | – | > 10 µM
CCN(C(=O)c1cc(F)ccc1Oc1nncnc1N1CCC2(C1)CN([C@H](CCCN(C)CCOC)C(C)C)C2)C(C)C | ion current | inhibitor | – | – | – | – | > 30 µM
C=C(C)C(=O)Nc1ccc(-c2c(-c3ccc(Oc4nccc(C)n4)cc3)c3c(N)ncnc3n2C)cc1 | ion current | inhibitor | – | – | – | – | 14 µM
CS(=O)(=O)c1sc(NC(=O)Nc2ccc(Cl)cc2)c2c1C=CCC2 | ligand displacement | – | FP | – | – | cell membranes | > 80 µM
O=C(c1cccc(S(=O)(=O)N2CCc3ccccc3C2)c1)N1CCO[C@H](c2ccc(F)cc2)C1 | ion current | inhibitor | – | – | – | – | 8.93 µM
CCN(CC)CC#CCNc1ccnc2cc(Cl)ccc12 | ion current | inhibitor | patch clamp | CHO | – | – | 7.3 µM
C[C@H](NC(=O)c1cc(S(=O)(=O)N2CCOCC2)ccc1N1CCCCC1)c1cc2ccccc2o1 | ion current | inhibitor | – | – | – | – | 8.05 µM
CCC(=O)N(C)c1ccc(Cl)c(Cl)c1 | hERG current | inhibitor | automated patch clamp | HEK293 stably expressing hERG | – | – | > 100 µM
CN(c1ccccc1)S(=O)(=O)c1cccc(C(=O)N2CCN(C(=O)Cc3ccc(F)cc3)CC2)c1 | ion current | inhibitor | – | – | – | – | 9.46 µM
Cc1ccc(O)c(C)c1OCC(C)N (stereo not drawn) | ion current | inhibitor | patch clamp | – | – | – | 22.4 µM
CCOc1c(C(C)(C)O)sc2cnc(Nc3ccc(N4CCC(N5CC6(COC6)C5)CC4)cc3OC)nc12 | ion current | inhibitor | patch clamp | CHO | – | – | 21.4 µM
CCNCC#CCNc1ccnc2cc(Cl)ccc12 | ion current | inhibitor | patch clamp | CHO | – | – | 12.2 µM
Cc1ncc2nc(C)n(Cc3c(F)cc(S(N)(=O)=O)cc3F)c2c1-c1ccccc1 | ion current | inhibitor | patch clamp | – | – | – | 11.7 µM
Cn1cc(-c2cc(N3CCCCS3(=O)=O)ccc2N[C@H]2CC[C@H](C)CC2)c2cc[nH]c2c1=O (stereo in doubt) | ion current | inhibitor | – | – | – | – | > 40 µM
CN(CCOc1ccc(F)cc1)C(=O)c1cccc(S(=O)(=O)N2CCc3ccccc3C2)c1 | ion current | inhibitor | – | – | – | – | 8.62 µM
COc1ccc2c(c1OCc1ccccc1)C[C@@H](C(=O)O)N(c1nc3ccc(C#N)cc3o1)C2 | ion current | inhibitor | patch clamp | CHO | pH 7.4 | – | > 10 µM

Repeated from above:
SMILES | observed | action | method | cell line | pH | notes | IC50
CN(C)C(CNC(=O)Nc1cc(C(F)(F)F)ccc1N1CCOCC1)c1ccncc1 (stereo not drawn) | ion current | inhibitor | patch clamp | – | – | – | > 30 µM
NCCCNc1nc2cc(Cl)ccc2n1Cc1ccccc1 | ion current | inhibitor | – | – | – | – | 1.63 µM
